{"data": "Assay results from different studies", "UCHL1": "Ubiquitin carboxyl-terminal hydrolase isozyme L1 (UCHL1, Homo sapiens, UniProt P09936)", "note": "Compare with care: the assays were run in different laboratories.", "sequence of UniProt P09936 (whole entry, looked up)": "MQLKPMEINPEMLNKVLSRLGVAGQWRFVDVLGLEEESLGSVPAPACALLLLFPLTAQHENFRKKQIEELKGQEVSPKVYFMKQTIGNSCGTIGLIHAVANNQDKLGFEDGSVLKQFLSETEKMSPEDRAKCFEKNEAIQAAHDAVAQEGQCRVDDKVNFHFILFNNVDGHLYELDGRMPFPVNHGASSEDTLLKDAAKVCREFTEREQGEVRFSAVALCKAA"}
{"SMILES": "COc1cnc(-n2cnc(C)n2)c2[nH]cc(C(=O)C(=O)N3CCN(C(=O)c4ccccc4)CC3)c12", "target or system": "HIV-1", "test": "viral replication, inhibitor, pseudovirus neutralization", "test system": "TZM-bl, 3365.v2.c20", "conditions": "48 h", "measurement": "IC50", "result": "1920 nM"}
{"SMILES": "COc1ccccc1CC(=N)N1C[C@@H]2C(=O)CCC(c3ccccc3)(c3ccccc3)[C@@H]2C1", "target or system": "HIV-1", "test": "viral replication, measured: p24", "test system": "PHA-stimulated PBMC, BaL (CCR5-tropic)", "conditions": "7 days", "measurement": "IC50", "result": "11000 nM"}
{"SMILES": "COc1ccnc2[nH]cc(C(=O)C(=O)N3CCN(C(=O)c4ccccc4)C[C@H]3C)c12", "target or system": "HIV-1", "test": "viral replication, inhibitor, pseudovirus neutralization", "test system": "TZM-bl, 398-F1_F6_20", "conditions": "48 h", "measurement": "IC50", "result": "2280 nM"}
{"SMILES": "CC(C)CN(C[C@@H](O)[C@H](Cc1ccccc1)NC(=O)O[C@H]1CCOC1)S(=O)(=O)c1ccc(N)cc1", "target or system": "HIV-1", "test": "viral replication, MTT", "test system": "MT-2, LAI", "measurement": "IC50", "result": "30 nM"}
{"SMILES": "OC[C@H]1O[C@@H](O[C@H]2[C@H](Oc3cc4c(O)cc(O)cc4[o+]c3-c3ccc(O)c(O)c3)O[C@H](CO)[C@@H](O)[C@@H]2O)[C@H](O)[C@@H](O)[C@@H]1O", "target or system": "HIV-1", "test": "viral infection", "test system": "TZM-bl, BaL (CCR5-tropic)", "conditions": "48 h", "measurement": "IC50", "result": "87400 nM"}
{"SMILES": "COc1ccc2[nH]cc(C(=O)CC#N)c2c1", "target or system": "UCHL1", "test": "covalent, intact protein LC-MS", "conditions": "12.5 µM", "measurement": "labelling", "result": "3.65%"}
{"SMILES": "O=C(NCc1c(F)cc(F)cc1F)c1cn2c(c(O)c1=O)C(=O)N1[C@H]3CC[C@H](C3)O[C@@H]1C2", "target or system": "HIV-1", "test": "viral replication, reverse transcriptase activity", "test system": "human monocyte-derived macrophages, ADA", "measurement": "IC50", "result": "3.75 nM"}
{"SMILES": "Cc1ccc(-c2ccc3c(c2)C=C(C(=O)Nc2ccc(C[N+](C)(C)C4CCOCC4)cc2)CCC3)cc1", "target or system": "HIV-1", "test": "viral attachment", "test system": "MAGI, Ba-L", "conditions": "washout 3 h post infection", "measurement": "IC50", "result": "7 nM"}
{"SMILES": "COc1cc(-c2oc3cc(O)cc(O)c3c(=O)c2O[C@@H]2O[C@H](CO)[C@@H](O)[C@H](O)[C@H]2O)ccc1O", "target or system": "HIV-1", "test": "viral infection", "test system": "TZM-bl, BaL (CCR5-tropic)", "conditions": "48 h", "measurement": "IC50", "result": "> 100000 nM"}
{"SMILES": "COc1ccc(S(=O)(=O)N(CC(C)C)C[C@@H](O)[C@H](Cc2ccccc2)NC(=O)O[C@H]2C[C@@H]3C[C@H]4[C@H](OC[C@H]42)O3)cc1", "target or system": "HIV-1", "test": "viral replication, antiviral", "test system": "MT2, LAI", "measurement": "IC50", "result": "21 nM"}
{"SMILES": "O=c1c(O[C@@H]2O[C@H](CO)[C@@H](O)[C@H](O)[C@H]2O)c(-c2ccc(O)cc2)oc2cc(O)cc(O)c12", "target or system": "HIV-1", "test": "viral infection", "test system": "TZM-bl, NL4-3 (CXCR4-tropic)", "conditions": "48 h", "measurement": "IC50", "result": "> 100000 nM"}
{"SMILES": "CC(C)C1OC1(C#N)C(N)=C(C#N)C#N (stereo not drawn)", "target or system": "UCHL1", "test": "covalent, intact protein LC-MS", "conditions": "12.5 µM", "measurement": "labelling", "result": "28%"}
